Measured values from different studies.
Each numbered part is a random draw from the data of one study; scales do not carry over between parts. Changes are numbered by the printed parent chain.

Study 1
Target: OGT, full length, His-tagged (human)
Method: phage display, sequencing
Sample: in vitro
Concentration: 1 µg OGT
Setting: single substitutions, 15-mer displayed peptide, unchanged parent 16.7
Baseline: input library
Direction: higher = stronger binding
Starting sequence: peptide; NSEYMPQYQIIFAHQ
For `Q15W`, the fold enrichment was 7.44 fold.
`H14G` has a fold enrichment of 21.9 fold.
For `I11G`, the fold enrichment was 2.47 fold.
`H14V` gave a fold enrichment of 6.94 fold.
The fold enrichment of `E3R` is reported as 10.8 fold.
For `Q7R`, the fold enrichment was 10.1 fold.
The fold enrichment of `P6T` is reported as 1.53 fold.
`I10M` gave a fold enrichment of 1.82 fold.

Study 2
Target: Interferon regulatory factor 7, full length, phosphomimetic (IRF7, Homo sapiens, UniProt Q92985, residues 1-503, S101K/S471D/S472D/S475D/S476D/S477D/S483D/S484D/S487D)
Method: protein-binding microarray
Molecule type: double-stranded DNA, one strand shown
Sample: in vitro
Concentration: 250 nM
Setting: 60-bp whole probe
Added: salmon DNA 0.4 mg/ml
Baseline: random background probes
Direction: higher = stronger binding
Shared flanks, not repeated: GCCTAGCAC … GTCTTGATTCGCTTGACGCTGCTG
Target sequence (chain): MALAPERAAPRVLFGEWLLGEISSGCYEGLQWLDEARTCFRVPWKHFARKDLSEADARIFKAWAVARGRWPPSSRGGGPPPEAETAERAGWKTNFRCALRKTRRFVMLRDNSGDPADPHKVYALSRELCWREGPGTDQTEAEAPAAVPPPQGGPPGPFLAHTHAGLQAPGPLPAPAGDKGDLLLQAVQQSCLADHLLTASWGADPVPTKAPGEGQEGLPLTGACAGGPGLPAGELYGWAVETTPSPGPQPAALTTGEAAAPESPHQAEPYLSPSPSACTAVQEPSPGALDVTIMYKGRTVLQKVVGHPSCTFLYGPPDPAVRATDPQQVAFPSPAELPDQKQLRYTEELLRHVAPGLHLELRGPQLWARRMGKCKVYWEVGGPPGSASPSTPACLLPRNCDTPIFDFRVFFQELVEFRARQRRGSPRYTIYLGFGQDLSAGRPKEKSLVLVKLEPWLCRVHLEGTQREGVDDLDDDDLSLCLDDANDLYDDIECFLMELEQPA
For `GACGAACTGGGGTTTCGATACGTGCTA`, the log fluorescence was 4.21 z-score.
The log fluorescence of `GATGGACTGGGGACTGGGGACGTGCTA` is reported as -0.819 z-score.
The log fluorescence of `GACGGACTGGGTATCGAGACGTGCTAG` is reported as -0.21 z-score.
With `GACGAACTGAATTTCGAGACGTGCTAG` the log fluorescence was 0.123 z-score.
The log fluorescence of `TTAGGACTGGAATATCGGTTAGTGCTA` is reported as 0.0518 z-score.
With `GACGATATAGGGTATCGAGACGTGCTA` the log fluorescence was -0.146 z-score.
With `GACGATTTCAGTATCAAGACGTGCTAG` the log fluorescence was 0.443 z-score.
With `TTAGATATCGGGTATCCATTAGTGCTA` the log fluorescence was 0.00276 z-score.

Study 3
Target: Hepatocyte nuclear factor 3-beta, forkhead domain (FOXA2, Homo sapiens, UniProt Q9Y261, residues 142-269)
Method: protein-binding microarray
Molecule type: double-stranded DNA, one strand shown
Sample: in vitro
Concentration: not given
Setting: k-mer, scored over probes, only values ≥0.25
Direction: higher = stronger binding
Target sequence (chain): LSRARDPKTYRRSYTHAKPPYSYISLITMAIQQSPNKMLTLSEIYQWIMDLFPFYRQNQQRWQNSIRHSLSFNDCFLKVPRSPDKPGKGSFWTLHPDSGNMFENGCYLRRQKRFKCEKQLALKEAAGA
For `CATATTTA`, the E-score was 0.428.
The E-score of `CATATAAC` is reported as 0.294.
`CTTTGTTA` has an E-score of 0.304.
`GTAAACAA` gave an E-score of 0.453.
The E-score of `TGTCCACA` is reported as 0.343.
For `ACACATGT`, the E-score was 0.323.
For `AATATATA`, the E-score was 0.31.
The E-score of `TACAGTAA` is reported as 0.312.

Mixed results
Starting sequence: PafA, mature enzyme, eGFP fusion (Elizabethkingia meningoseptica, UniProt Q9KJX5); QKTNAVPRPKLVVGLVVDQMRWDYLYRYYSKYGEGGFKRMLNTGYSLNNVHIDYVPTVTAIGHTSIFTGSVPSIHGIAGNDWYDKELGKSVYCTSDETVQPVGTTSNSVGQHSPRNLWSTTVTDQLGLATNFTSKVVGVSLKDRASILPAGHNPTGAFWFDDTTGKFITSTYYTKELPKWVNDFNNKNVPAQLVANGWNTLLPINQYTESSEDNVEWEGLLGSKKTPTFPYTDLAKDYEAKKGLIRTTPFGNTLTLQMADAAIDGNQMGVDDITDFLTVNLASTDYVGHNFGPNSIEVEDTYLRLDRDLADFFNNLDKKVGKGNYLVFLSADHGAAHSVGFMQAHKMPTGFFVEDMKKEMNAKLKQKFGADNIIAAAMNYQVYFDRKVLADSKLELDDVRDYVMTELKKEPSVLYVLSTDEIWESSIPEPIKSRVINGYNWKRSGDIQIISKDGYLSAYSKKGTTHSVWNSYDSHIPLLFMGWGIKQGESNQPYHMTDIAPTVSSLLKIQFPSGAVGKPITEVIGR
`V137G`: “oxyanion analog dissociation constant” 1.05 µM (vanadate, free oxyanion; microfluidic competitive inhibition; in vitro, cell-free expressed; not given, derived from inhibition constants, unchanged parent 676 nM; lower = stronger binding).

For quick reference, copied from above (study 2):
The log fluorescence of `GACGGACTGGGTATCGAGACGTGCTAG` is reported as -0.21 z-score.
With `GACGAACTGAATTTCGAGACGTGCTAG` the log fluorescence was 0.123 z-score.
